{"data": "Measured values of several laboratories", "note": "Numbered parts are unrelated; each lists some results of a single study."}
{"data": "Sample 1", "target": "Interferon regulatory factor 7, full length, phosphomimetic (IRF7, Homo sapiens, UniProt Q92985, residues 1-503, S471D/S472D/S475D/S476D/S477D/S483D/S484D/S487D)", "technique": "protein-binding microarray", "molecule type": "double-stranded DNA, one strand shown", "matrix": "in vitro", "concentration": "2200 nM top", "notes": "60-bp whole probe", "together with": "salmon DNA 0.4 mg/ml", "reference": "random background probes", "reading": "higher = stronger binding", "chain of UniProt Q92985 (whole entry, unmodified, looked up)": "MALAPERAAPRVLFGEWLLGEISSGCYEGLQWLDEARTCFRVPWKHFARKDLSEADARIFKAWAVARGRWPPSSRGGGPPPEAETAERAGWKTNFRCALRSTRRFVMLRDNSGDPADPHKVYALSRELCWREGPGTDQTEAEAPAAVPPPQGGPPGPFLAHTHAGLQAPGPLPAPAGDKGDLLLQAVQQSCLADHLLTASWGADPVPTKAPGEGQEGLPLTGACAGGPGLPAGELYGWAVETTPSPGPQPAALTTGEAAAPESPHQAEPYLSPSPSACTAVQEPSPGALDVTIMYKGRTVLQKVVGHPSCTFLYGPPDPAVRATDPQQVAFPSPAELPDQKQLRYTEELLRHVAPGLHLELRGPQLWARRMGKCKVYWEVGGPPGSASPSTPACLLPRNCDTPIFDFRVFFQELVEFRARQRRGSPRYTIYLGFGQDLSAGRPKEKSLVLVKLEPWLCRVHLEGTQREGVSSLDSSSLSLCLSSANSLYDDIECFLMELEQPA"}
{"Strand": "GCCTAGCACGCCGGTATCGGTCTCGGGACGTGCTAGGTCTTGATTCGCTTGACGCTGCTG", "fitted relative affinity [z-score]": 0.0724}
{"Strand": "GCCTAGCACTTAGATATCAGACTGGTTTAGTGCTAGGTCTTGATTCGCTTGACGCTGCTG", "fitted relative affinity [z-score]": 0.0051}
{"Strand": "GCCTAGCACTTAGATTTCAGTCTCGATTAGTGCTAGGTCTTGATTCGCTTGACGCTGCTG", "fitted relative affinity [z-score]": 0.819}
{"Strand": "GCCTAGCACGACGGTCTCGCACTGGGGACGTGCTAGGTCTTGATTCGCTTGACGCTGCTG", "fitted relative affinity [z-score]": -0.3}
{"data": "Sample 2", "target": "RNA binding protein fox-1 homolog 2, RRM domain, GST-SBP tag (RBFOX2, Homo sapiens, UniProt O43251-10, residues 100-194)", "technique": "RNA Bind-n-Seq", "molecule type": "RNA", "matrix": "in vitro", "concentration": "365 nM", "notes": "natural RNA segment, single round, ends assumed", "reference": "no-protein control", "reading": "higher = stronger binding", "Target sequence (chain)": "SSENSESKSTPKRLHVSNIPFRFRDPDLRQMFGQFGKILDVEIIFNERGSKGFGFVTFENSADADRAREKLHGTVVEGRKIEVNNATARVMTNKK"}
{"Strand": "GGGAGUUCUACAGUCCGACGAUCGAGACGGACCUCAGUGUGUUUUAUAUUGUCUGGUGUUAAGAUGAUAAAUUACUUUGUGAUUACAAGCAAAUUUUCUAUUUGACAAAGCCCUUGGUGGAGUCCAAAUGAUUUGGAAUUCUCGGGUGCCAA", "RBNS enrichment (R)": 0.666}
{"Strand": "GGGAGUUCUACAGUCCGACGAUCGUCUGGCUUUGAAAGAUUUCAUUGUUGGUAGAAAUAACAGGUUGAGAAAGAGGGAGUUAGCAUCACCUAAAACCUGCACGUGAACAAGGGUUGACAUGAUACACUAUGGCUGGAAUUCUCGGGUGCCAA", "RBNS enrichment (R)": 1.33}
{"Strand": "GGGAGUUCUACAGUCCGACGAUCUCCCUAAAUGUGGCCACCAGAGAGUUCCAGUGGGCAGAUGUCUGUGGCUGCCCUUCUCAUUUAAGGACAUGAGUUCACUGGAGUAUUACUCAAAAAGUCUGUGGUUCAUUUGGAAUUCUCGGGUGCCAA", "RBNS enrichment (R)": 0.308}
{"data": "Further values, each from its own experiment", "PABPC1L2 full length, GST fusion": "PABPC1L2, full length, GST fusion (mouse, UniProt A0ABA7IW68)"}
{"Molecule": "GACUAGC", "target": "PABPC1L2 full length, GST fusion", "assay": "RNAcompete", "system": "RNA, in vitro", "conditions": "20 nM, 7-mer, probes averaged, single round", "scale": "reference: mean of 7-mers, higher = stronger binding", "quantity": "7-mer Z-score", "value": -0.144}
{"Molecule": "PhoQ, residues 284 288 289 292 302 303 SMYGEC", "target": "PhoP, residues 12 14 15 18 19 DLLYY (Escherichia coli, UniProt P23836)", "assay": "Sort-seq, measured: YFP reporter", "system": "E. coli", "conditions": "PhoQ-PhoP variant library, together with: 10 µM Mg2+", "scale": "reference: high Mg2+ state, higher = stronger signaling", "quantity": "fold induction", "value": 3.67}
{"Molecule": "UUUUCGU", "target": "PABPC1L2 full length, GST fusion", "assay": "RNAcompete", "system": "RNA, in vitro", "conditions": "20 nM, 7-mer, probes averaged, single round", "scale": "reference: mean of 7-mers, higher = stronger binding", "quantity": "7-mer Z-score", "value": -0.4}
{"note": "Excerpt of the above (further values, each from its own experiment):"}
{"Molecule": "UUUUCGU", "target": "PABPC1L2 full length, GST fusion", "assay": "RNAcompete", "system": "RNA, in vitro", "conditions": "20 nM, 7-mer, probes averaged, single round", "scale": "reference: mean of 7-mers, higher = stronger binding", "quantity": "7-mer Z-score", "value": -0.4}
